Published values pooled from the literature.
Every numbered part comes from another study and shows a few of its results, in no order.

Set 1
Target: RNA binding protein fox-1 homolog 2, RRM domain, GST-SBP tag (RBFOX2, Homo sapiens, UniProt O43251-10, residues 100-194)
Method: RNA Bind-n-Seq
Molecule type: RNA
Matrix: in vitro
Concentration: 365 nM
Setting: natural RNA segment, single round, ends assumed
Baseline: no-protein control
Reading: higher = stronger binding
Residues (chain): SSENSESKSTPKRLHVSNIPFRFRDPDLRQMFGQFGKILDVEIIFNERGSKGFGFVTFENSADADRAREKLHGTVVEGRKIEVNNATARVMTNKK
Strand	RBNS enrichment (R)
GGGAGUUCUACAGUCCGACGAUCACCACUUCAUUAGAGCACUUGCUGCAGAGGCAGAGAGCAGAGCCGCCAGGAUAAAUUCUGCUUCCACCCCACAAAGGCAGUCACAGGAGAGAGUGGAGAGAGCAGUAAGGUGGAAUUCUCGGGUGCCAA	0.196
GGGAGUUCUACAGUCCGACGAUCAGGAGACCCGCGUGUGGCACCGCCGCGACGGCAAGUGGCAGAACGUGCACUUCCACUGCUCGGGCGCGCCUGUGGCCCCGCUGCAGUGAAGAGCUGCGCCCUGGUUUCGCUGGAAUUCUCGGGUGCCAA	1.77
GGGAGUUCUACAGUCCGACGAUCCCACACUUCCAGGCUAUCUGAACUCCUGAAGCCCUAAAAAUAAAAAGCACAGUUGUAACUACCUGAAAUAUGAAGAUCCAGUUUCAUACAAACAUUUGUAUGACGUGAAUUGGAAUUCUCGGGUGCCAA	0.668
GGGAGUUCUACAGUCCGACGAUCUCUAGACAGUAGACAAGGACCCUUCUACUGAACCUCCAAGGAAAAGAAGAAGGAAAAGAAGAAGUGCUUUUCAAAUCUUUCAAAGGGCUACAUGUAACCAUCUGGAAUGAUGGAAUUCUCGGGUGCCAA	0.366
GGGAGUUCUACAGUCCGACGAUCUACCCGGCUGAUGGUUAGCCCCUUGCUGCCUGCUCCAUGUGUCUUAUGAGAGCCCGUAGUUACAGUGUCCUCUAAUUUGAAAUCCAUAAGUUAACAAGUCUAUAUCAGGUUGGAAUUCUCGGGUGCCAA	0.429
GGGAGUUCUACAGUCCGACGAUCCUCUUCUCACUUUACCUGUUUUUAUUUCUGCUUGUAUCUAAGUGUGAAGGCAGGGCAGGUACACUGAGUCUGGAAGCUCUGGGUGAGGCUCGGAGCUUGAAGCUCUUUGAUGGAAUUCUCGGGUGCCAA	0.353
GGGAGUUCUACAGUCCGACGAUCGAUUUCAGGAGAACCUAACAUGCUGGUGAAUAUUUUCAACUUUUUCCCUCACUAAUUGGUACUUUUAAAAACAUAACAUAAAUUUUUUGAAGUCUUUAAUAAAUAACCCAUGGAAUUCUCGGGUGCCAA	0.34
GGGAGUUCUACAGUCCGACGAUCUCUGUUUGAGGAACUAACUACAUGGAAAAGACUUCUGACUUAAACCCAUGAAAUACUUCAUCUUGAGAAGAGUGCUAUGUGGAAAUCACCAAAUAUCUCGCAACUUUAUUUGGAAUUCUCGGGUGCCAA	0.555
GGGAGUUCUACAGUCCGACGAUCUCUCAUCCCUAUCUCCAGUCAAAGAUGGGAUUGCUUAAUCCAACUCUGGAGAGGGACCAAGUCUUUUCUGCCCACAUCUCACACAAUUGAGGUGUCUGAACAAGCUUGGGUGGAAUUCUCGGGUGCCAA	0.242
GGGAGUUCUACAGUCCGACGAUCGAGCUGUUGCUGUUGUCAGUCGAGUGCAGUUUUCUGCAGCGAUGUCAUAAGGAGUCAGAUUCCGUGACCUCCUCUUUGAUGGAGGACACACUGAACUGAAGGGGACUUGCUGGAAUUCUCGGGUGCCAA	0.279
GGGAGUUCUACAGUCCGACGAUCCCUUGAAAUAAUAUUUGACUAUAUAGGUACAUAUCUGUAAAAGAUGACCACCUUAACUAAAUCAGAUUUUACAUUUAUAAAUUUUAUAUUUAAUUAGUCAAAUCAAUUUUUGGAAUUCUCGGGUGCCAA	0.846
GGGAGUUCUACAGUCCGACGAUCCCUUAAAACUUAUUGGAUUAUGAAUGUUAUCAGAGUACUGAAUUGUAUCAAUUUGUUUGCAGUUAAUAUCAGCUUUGAUAGUCAUGUACCUUGACAUAGUGAAGGACACUUGGAAUUCUCGGGUGCCAA	0.571

Set 2
Target: Centromere-binding protein 1, full length, N-terminal tag (CBF1, Saccharomyces cerevisiae, UniProt P17106, residues 1-351)
UniProt P17106, sequence (whole entry, looked up): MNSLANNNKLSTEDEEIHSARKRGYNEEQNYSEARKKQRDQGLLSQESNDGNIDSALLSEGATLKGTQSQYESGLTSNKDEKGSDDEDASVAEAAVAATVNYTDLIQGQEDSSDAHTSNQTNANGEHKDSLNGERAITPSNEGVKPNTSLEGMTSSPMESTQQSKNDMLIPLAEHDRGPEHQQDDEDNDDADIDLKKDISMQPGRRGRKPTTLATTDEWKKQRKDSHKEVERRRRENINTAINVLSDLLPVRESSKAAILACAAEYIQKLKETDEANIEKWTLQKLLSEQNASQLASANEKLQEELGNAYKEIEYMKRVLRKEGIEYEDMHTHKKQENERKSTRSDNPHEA
Method: protein-binding microarray
Molecule type: double-stranded DNA, one strand shown
Matrix: in vitro
Concentration: 0.8 µM
Setting: whole 60-bp probe, no competitor
Reading: higher = stronger binding
Strand	fluorescence intensity
CTAAAAGTGAGTAGGAACGTGTATGTTTGTGTATTCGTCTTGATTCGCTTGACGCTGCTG	512 a.u.
CTAACATATACCTTACAGGAGATCGGACGTGTGTTCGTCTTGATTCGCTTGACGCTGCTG	495 a.u.
GAAAGAAAAAGATATCAGCAGAATACAAAAAATTAGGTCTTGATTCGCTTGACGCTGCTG	524 a.u.
GAAAGCACATGATATCACCAGACGTGTTGCACTTAGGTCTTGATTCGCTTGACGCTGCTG	1150 a.u.
CTATTGACGTTTTAACAGCTGATAACCGCCATTTTCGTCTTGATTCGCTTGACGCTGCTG	556 a.u.
CCTAACTACTATAAAAGTGTGCGATAGCTTCGTACAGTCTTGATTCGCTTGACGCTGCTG	487 a.u.
GAAAAAAAATAAAAGCATGTGCGAACTCTAGTTTAGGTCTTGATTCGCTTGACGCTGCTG	696 a.u.
GAATTCCGGAGGGCGCACGAGCCACCCGGGTCGTAGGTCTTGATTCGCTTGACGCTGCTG	542 a.u.
CTAAATAAAATGAGAAACGTGCTTCCAGTTCAATTCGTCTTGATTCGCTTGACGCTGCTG	691 a.u.
GAAGAAGGAACATAACACGTTACTATTTGTCTATAGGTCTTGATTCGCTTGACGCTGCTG	626 a.u.
CTATTTCAAAGCTGTCTCCACGTGGAAAGTTTATTCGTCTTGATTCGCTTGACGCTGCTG	3640 a.u.
CTACCTATATGGAGTCATGAGCATACATGGTGCTTCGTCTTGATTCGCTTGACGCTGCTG	611 a.u.
CTACTAGTACATTATCACATGCGGTGTAAGAAGTTCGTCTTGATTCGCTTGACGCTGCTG	1160 a.u.
GAACCGTAGGAAAGTTACCAGGTGAATTTAAATTAGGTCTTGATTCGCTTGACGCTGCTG	536 a.u.
GAATGAAAATATGCGCACGTCTATACACACAATTAGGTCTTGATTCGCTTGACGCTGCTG	546 a.u.
GAAGATATATTTTCTGATGTCCTAGGAATTGGATAGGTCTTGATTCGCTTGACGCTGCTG	504 a.u.
TGTACGAAGCTATTTGGTGACACTATAGTAGTTAGGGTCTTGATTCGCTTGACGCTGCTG	489 a.u.
GAATCACAGAACCTGGACGTGCCGCTGTTATTGTAGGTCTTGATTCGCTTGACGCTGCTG	510 a.u.
GAAGCGGTAATTCAACACGTGAATTTCAGCTATTAGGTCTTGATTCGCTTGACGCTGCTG	2830 a.u.
CTAAAATGGCATAATCACGTAGCAACCTGGAAATTCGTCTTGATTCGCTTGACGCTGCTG	605 a.u.
TGTACGAAGCTATTCGGCGTGATTATAGTAGTTAGGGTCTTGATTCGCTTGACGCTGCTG	576 a.u.
TGTACGAAGCTATACGTGATGAATATAGTAGTTAGGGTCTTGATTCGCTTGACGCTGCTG	597 a.u.
GAAAGCGGTTTTAATCACGTTACCGTTTATTTCTAGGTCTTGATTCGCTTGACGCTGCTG	3690 a.u.
GAATGGAAGAGAAGTCACATTCGTGAAAGGCACTAGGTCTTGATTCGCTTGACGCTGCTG	567 a.u.
CTATGAGGAATTGACAACGTGTTTGTATAAGATTTCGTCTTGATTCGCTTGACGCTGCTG	632 a.u.

Set 3
Target: Histone acetyltransferase KAT6A, both winged helices, GST fusion (KAT6A, Homo sapiens, UniProt Q92794, residues 1-181)
Method: protein binding microarray
Molecule type: double-stranded DNA, one strand shown
Matrix: in vitro
Concentration: not given
Setting: 8-mer, flanks averaged, mean of 2 arrays, mostly near background
Baseline: not given
Reading: higher = stronger binding
Residues (chain): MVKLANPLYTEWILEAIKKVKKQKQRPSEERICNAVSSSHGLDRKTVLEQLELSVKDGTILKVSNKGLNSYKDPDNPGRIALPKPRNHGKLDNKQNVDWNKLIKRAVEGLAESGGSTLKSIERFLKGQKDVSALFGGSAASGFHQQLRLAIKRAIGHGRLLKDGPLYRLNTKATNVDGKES
Strand	E-score
CCCGCGAG	0.295
GTTAGAGA	-0.137
CCAATACG	0.0405
GCGGCTCA	0.183
AGGCAGGG	-0.308
CTAAAGCC	-0.101
ACGACGTC	0.0223
GCTCACTA	-0.0437
AGTAATCA	0.00123
GGAGCGAA	0.0437
ATTCGGTC	0.0743
CTAGAGTC	-0.0245
AGGAGCCT	-0.00807
ATACCTGC	-0.0851
CGCCCGGC	0.308
GCGTTCCA	0.0665
CGCCATTC	0.0313
CTGAAAAC	0.0288
AGCATTGA	-0.188
GGCCTTCA	0.0487
TGAAATCA	0.103
AGCGCTGG	0.195
AAGAAGGC	-0.122

Set 4
Target: PABPC1L2, full length, GST fusion (mouse, UniProt A0ABA7IW68)
Method: RNAcompete
Molecule type: RNA
Matrix: in vitro
Concentration: 20 nM
Setting: 7-mer, probes averaged, single round
Baseline: mean of 7-mers
Reading: higher = stronger binding
Construct (chain): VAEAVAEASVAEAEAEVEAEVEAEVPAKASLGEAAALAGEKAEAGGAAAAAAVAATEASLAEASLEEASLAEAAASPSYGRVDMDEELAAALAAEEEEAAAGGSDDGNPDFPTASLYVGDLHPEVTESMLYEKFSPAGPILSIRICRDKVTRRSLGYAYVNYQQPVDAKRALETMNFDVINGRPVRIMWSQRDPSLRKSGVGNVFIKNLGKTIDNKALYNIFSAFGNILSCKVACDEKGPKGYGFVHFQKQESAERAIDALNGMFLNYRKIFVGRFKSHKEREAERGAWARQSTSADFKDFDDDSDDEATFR
Strand	7-mer Z-score
AGACUCG	-0.416
AACUUGU	-0.168
GCUGCGG	0.0406
CGGCACC	-0.193
AGUAUUC	-0.244
AGUUCUA	-0.255
AUUGCAA	0.0442
GUCGUUG	-0.376
GGGGUAG	0.195
AAACGGG	1.01
CGCUACU	-0.356
AGAAAUC	0.631
AAAGUUG	1.43
GCGAUAA	0.519
AGAGGAG	0.109
UGUUGUG	-0.267
AAGACUC	-0.0192
AAAUGCC	0.996
ACACUUC	-0.238
GAGCAAC	0.12
AAGGGGG	0.919
CAACUGC	-0.0264
AGCGCAA	-0.00289
